Experimental data gathered from unrelated publications.
Protocols differ between the studies behind these lines. “And” joins repeats or separate records; there may be more than shown. ± gives the spread as reported.
HSD3B1: 3 beta-hydroxysteroid dehydrogenase/Delta 5-->4-isomerase type 1 (HSD3B1, Homo sapiens, UniProt P14060)
UniProt P14060, sequence (whole entry, looked up): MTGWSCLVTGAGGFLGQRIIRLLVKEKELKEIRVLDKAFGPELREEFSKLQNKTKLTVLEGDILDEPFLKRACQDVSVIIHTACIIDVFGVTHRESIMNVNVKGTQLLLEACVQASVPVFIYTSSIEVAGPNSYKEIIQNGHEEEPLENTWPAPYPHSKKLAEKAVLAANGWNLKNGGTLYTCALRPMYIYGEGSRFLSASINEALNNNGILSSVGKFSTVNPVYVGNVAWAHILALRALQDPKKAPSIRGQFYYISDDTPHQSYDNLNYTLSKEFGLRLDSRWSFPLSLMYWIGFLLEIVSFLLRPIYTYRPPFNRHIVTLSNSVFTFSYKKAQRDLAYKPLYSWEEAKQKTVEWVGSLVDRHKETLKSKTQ
CASP8: Caspase-8 (CASP8, Homo sapiens, UniProt Q14790)
UniProt Q14790, sequence (whole entry, looked up): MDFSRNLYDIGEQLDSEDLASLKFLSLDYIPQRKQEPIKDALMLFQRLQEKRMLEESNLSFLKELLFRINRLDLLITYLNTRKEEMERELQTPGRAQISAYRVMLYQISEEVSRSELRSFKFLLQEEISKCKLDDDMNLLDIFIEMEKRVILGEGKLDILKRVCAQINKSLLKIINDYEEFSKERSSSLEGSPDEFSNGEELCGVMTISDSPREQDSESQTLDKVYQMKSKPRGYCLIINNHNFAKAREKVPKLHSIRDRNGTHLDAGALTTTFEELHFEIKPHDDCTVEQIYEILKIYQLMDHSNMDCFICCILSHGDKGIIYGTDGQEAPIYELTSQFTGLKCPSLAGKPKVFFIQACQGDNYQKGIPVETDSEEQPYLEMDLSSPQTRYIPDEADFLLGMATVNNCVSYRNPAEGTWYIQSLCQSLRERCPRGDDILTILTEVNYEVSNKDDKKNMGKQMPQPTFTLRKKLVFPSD
CASP10: Caspase-10 (CASP10, Homo sapiens, UniProt Q92851)
UniProt Q92851, sequence (whole entry, looked up): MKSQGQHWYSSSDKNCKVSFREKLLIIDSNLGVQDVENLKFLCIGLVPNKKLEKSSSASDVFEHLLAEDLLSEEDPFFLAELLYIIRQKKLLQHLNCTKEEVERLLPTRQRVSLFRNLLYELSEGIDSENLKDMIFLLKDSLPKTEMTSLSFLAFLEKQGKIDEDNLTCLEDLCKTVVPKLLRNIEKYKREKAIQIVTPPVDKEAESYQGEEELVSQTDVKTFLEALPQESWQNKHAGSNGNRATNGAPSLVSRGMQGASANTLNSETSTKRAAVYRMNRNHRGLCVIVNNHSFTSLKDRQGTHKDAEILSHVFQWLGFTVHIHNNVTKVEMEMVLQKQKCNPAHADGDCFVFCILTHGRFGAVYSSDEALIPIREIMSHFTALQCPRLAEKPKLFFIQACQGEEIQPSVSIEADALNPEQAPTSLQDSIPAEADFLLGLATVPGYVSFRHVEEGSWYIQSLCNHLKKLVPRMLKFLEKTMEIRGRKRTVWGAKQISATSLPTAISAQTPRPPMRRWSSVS
T1: DNA, abasic bulge, mismatch; chain GTCCAGTGCAACG; chain CGTTGCGGCTGGAC
UniProt Q92633, sequence (whole entry, unmodified, looked up): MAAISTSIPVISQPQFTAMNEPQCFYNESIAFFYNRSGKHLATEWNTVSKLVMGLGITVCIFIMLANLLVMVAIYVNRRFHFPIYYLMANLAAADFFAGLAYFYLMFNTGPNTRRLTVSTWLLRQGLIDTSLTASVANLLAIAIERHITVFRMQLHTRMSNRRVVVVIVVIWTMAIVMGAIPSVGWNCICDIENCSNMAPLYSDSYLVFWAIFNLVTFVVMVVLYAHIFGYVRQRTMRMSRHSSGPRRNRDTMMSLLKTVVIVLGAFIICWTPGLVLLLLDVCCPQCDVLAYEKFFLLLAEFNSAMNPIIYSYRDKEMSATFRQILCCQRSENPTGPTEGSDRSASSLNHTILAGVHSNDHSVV
UniProt Q6PE15, sequence (whole entry, looked up): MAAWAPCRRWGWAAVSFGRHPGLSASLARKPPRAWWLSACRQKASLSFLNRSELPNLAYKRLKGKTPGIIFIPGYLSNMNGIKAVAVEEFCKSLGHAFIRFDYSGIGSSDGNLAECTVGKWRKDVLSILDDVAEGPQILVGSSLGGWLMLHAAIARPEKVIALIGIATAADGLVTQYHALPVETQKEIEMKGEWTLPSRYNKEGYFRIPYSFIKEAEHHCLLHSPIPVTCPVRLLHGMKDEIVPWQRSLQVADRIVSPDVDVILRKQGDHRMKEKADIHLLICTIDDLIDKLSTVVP
UniProt P22061, sequence (whole entry, looked up): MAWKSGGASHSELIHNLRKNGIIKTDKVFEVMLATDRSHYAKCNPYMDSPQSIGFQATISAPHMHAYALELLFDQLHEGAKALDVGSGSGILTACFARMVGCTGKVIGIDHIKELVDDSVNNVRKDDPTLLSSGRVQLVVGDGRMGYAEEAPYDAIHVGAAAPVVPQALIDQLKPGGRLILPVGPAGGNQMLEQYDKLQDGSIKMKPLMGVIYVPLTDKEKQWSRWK
UniProt P28482, sequence (whole entry, looked up): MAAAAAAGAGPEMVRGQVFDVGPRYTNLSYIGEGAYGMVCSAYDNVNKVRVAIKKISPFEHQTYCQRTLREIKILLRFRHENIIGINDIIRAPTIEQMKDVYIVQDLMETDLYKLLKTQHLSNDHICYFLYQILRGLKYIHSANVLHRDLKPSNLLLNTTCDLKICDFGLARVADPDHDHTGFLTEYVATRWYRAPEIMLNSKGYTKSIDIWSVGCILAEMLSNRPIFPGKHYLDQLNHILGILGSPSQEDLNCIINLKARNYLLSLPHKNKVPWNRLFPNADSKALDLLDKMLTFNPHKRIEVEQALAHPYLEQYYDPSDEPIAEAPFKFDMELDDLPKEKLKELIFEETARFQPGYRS
UniProt P08069, sequence (whole entry, looked up): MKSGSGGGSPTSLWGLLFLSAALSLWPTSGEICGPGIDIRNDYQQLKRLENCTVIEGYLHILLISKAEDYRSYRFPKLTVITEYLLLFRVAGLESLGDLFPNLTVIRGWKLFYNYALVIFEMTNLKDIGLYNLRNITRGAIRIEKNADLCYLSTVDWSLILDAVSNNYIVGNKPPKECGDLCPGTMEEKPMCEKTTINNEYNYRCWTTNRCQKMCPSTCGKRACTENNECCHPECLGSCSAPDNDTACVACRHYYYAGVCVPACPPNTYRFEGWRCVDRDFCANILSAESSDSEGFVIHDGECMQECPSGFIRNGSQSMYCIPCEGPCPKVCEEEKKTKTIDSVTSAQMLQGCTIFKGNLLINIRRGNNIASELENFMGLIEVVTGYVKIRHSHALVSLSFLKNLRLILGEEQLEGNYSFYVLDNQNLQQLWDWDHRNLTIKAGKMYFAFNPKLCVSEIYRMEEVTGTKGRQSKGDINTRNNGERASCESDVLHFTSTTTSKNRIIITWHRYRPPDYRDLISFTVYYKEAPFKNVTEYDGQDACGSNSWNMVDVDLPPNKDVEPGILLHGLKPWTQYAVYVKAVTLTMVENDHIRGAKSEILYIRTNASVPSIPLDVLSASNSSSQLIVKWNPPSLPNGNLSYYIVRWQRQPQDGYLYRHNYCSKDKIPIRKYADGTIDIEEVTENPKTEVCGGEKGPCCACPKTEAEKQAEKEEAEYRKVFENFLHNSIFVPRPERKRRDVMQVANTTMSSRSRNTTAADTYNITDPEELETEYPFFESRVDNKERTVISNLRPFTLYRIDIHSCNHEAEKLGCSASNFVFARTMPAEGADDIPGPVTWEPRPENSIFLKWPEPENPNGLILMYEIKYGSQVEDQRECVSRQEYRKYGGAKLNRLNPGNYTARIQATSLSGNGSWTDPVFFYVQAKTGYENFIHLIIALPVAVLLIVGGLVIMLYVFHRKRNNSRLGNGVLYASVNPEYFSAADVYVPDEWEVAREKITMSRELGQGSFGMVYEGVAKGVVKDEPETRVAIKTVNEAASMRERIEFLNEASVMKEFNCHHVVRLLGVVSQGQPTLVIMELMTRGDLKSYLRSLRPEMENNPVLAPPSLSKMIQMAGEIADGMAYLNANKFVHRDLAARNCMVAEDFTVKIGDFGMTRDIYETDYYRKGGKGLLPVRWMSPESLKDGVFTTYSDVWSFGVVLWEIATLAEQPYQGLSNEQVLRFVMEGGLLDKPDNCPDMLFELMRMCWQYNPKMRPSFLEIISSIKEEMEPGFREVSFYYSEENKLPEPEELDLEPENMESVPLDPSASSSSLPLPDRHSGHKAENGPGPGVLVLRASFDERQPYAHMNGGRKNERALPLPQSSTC
UniProt P36776, sequence (whole entry, looked up): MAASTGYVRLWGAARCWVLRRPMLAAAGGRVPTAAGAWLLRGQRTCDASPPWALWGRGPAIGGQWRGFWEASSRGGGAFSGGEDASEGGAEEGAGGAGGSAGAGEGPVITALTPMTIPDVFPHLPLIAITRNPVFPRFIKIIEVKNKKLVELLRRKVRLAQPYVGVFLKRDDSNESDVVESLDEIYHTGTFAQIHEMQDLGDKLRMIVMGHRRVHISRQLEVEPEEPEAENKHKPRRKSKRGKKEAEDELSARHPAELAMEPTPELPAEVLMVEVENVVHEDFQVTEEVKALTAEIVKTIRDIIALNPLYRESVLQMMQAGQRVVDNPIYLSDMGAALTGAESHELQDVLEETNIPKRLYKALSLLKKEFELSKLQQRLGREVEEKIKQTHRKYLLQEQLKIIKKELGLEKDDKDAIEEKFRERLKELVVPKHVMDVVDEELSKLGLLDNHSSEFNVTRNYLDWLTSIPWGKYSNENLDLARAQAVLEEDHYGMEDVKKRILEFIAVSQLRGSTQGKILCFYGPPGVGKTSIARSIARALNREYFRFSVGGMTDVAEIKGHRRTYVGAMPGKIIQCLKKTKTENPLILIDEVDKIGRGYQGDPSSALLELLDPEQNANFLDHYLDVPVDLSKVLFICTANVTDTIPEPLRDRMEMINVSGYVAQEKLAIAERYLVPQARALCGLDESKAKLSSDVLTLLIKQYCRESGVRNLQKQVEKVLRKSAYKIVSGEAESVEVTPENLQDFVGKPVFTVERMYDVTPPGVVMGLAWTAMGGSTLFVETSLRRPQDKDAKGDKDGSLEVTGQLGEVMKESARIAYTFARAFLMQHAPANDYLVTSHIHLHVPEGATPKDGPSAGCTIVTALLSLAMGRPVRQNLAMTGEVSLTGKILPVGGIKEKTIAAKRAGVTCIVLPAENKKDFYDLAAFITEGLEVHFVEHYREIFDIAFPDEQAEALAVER

Compound | target or system | test | test system | setting | how to read | endpoint | value
O=C(CCc1ccc2n1[B-](F)(F)[N+]1=C(c3ccc[nH]3)C=CC1=C2)NCCCn1cc([C@H]2CN(Cc3ccccn3)C(=O)[C@@H]3CCC[C@H]2N3S(=O)(=O)c2cc(Cl)cc(Cl)c2)nn1 | FKBP1A (Homo sapiens, UniProt P62942) | tracer binding, NanoBRET tracer titration | HEK293T transiently expressing FKBP1A |  |  | Hill slope | 1.3 ± 0.1
CCN(CC)C(CO)c1cccc2c(C)c(C)oc12 (centres unmarked) | LPAR1 (Homo sapiens, UniProt Q92633, W271A) | G-protein dissociation, agonist, NanoBiT | HEK-293T | 100 nM, W271A mutant | relative to: baseline luminescence | fold change | 0.953 and 1.04 and 0.918 and 0.968 and 0.802 and 1.02
CN1CCN(Cc2cc(-c3coc4cc(O)ccc4c3=O)ccc2Cl)CC1 | HSD3B1 | [3H]-DHEA conversion | LNCaP | 0.1 µM, normalized to protein, unit not given | relative to: vehicle | DHEA metabolism | 2.23
Cc1cc(C)cc(COc2cc3c(cc2OCc2cc(C)cc(C)c2)C2CC(O)(Cc4cn(CCOCCOCCNC(=O)CCCCC5SCC6NC(=O)NC65)nn4)CC(C)N2CC3)c1 (centres unmarked) | eIF5-mimic protein 2 (Homo sapiens, UniProt Q7L1Q6) | biotinylated probe pull-down, item: BZW1 |  | 10 µM probe | relative to: heavy over light | SILAC ratio | 2.92
CCCCCC(O)/C=C/C=O (centres unmarked) | LONP1 (Homo sapiens, UniProt P36776) | acylphosphate-ATP probe SILAC-ABPP | ZAK-transfected HEK293T | 100 µM, added: acylphosphate-ATP probe | relative to: DMSO over compound-treated | probe labelling ratio | 0.63
COC(=O)Nc1ccc2ccc(CNCc3ccc4ccc(NC(=O)OC)nc4n3)nc2n1 | T1, DNA, abasic bulge, mismatch | CSI-TOF mass spectrometry |  |  |  | binding | no binding
CCCCCCCCCCCCC/C=C/C=O | Exportin-2 (Homo sapiens, UniProt P55060) | competitive isoTOP-ABPP, item: CSE1L cysteine peptide | proteome, soluble, MDA-MB-231 | 100 µM, added: iodoacetamide probe | relative to: DMSO over compound-treated, higher = stronger cysteine blockade | isoTOP-ABPP competition ratio | 1.3
C#CCOC(=O)[C@@]1(C)C=C(C(=O)OC(C)(C)C)C(=O)CC1 | MAPK1 (Homo sapiens, UniProt P28482) | enzyme activity, D-SENSOR |  | 1.646 µM, mean of replicates |  | normalized kinase activity | 1.04
CC(C)[C@@H]1NC(=O)[C@H](Cc2ccccc2)NC(=O)CSC[C@@H](C(N)=O)NC(=O)[C@H](CCC(=O)O)NC(=O)[C@H](CO)NC(=O)[C@H](Cc2c[nH]c3cccc(Cl)c23)NC(=O)[C@H](C2CCCCC2)NC(=O)[C@H](C(C)C)NC(=O)[C@H](Cc2ccc(O)cc2)NC(=O)[C@H](CC(=O)O)NC(=O)[C@H](Cc2c[nH]c3ccccc23)NC(=O)[C@H](Cc2ccc(N)nc2)NC(=O)[C@H](Cc2c[nH]c3ccc(Cl)cc23)NC(=O)[C@H](CCC(=O)O)NC1=O | Interleukin-1 receptor-like 2 (IL1RL2, Homo sapiens, UniProt Q9HB29) | reporter gene (SEAP), inhibitor, HEK-Blue IL-36R reporter | HEK-Blue IL-36R cells | 0.005 µM, 6 h, added: IL-36γ 0.01 ng/mL |  | remaining activity | 106%
Cc1cc(C(=O)NCCNC(=O)c2cccc(COc3ccccc3C(N)=O)c2)n[nH]1 | PARP1 (Homo sapiens, UniProt P09874) | enzyme activity, inhibitor |  | 0.5 µM |  | inhibition | 67%
N=C(N)NCCS(=O)(=O)O | SLC6A6 (Homo sapiens, UniProt P31641, G62A) | binding, microscale thermophoresis |  | 3.91 µM, room temperature, added: 50 nM labelled protein | higher = more binding | normalised MST signal | -0.0512
COc1ccc(NC(=O)Nc2ccc3c(c2)C(=O)N(C(C)CO)CC(C)C(CN(C)Cc2ccc4c(c2)OCO4)O3)cc1 (centres unmarked) | IGF1R (Homo sapiens, UniProt P08069) | binding, competition with immobilised ligand |  | 10 µM |  | remaining binding | 88%
CC(=O)N[C@H](C(=O)N[C@@H](CCCNC(N)=O)C(=O)N[C@@H](CCO)C(=O)N[C@@H](CC(=O)O)C(=O)COC(=O)c1c(C)cccc1C)C1CCCCC1 | CASP8 | enzyme activity, inhibitor |  |  |  | kinact/KI | 48000 M⁻¹ s⁻¹
CNC(=O)C1CCN(c2cc(C)c(F)cc2NC(=O)c2ccc(-c3cc(O)ccc3C)c(C)c2)CC1 | Tyrosine-protein kinase ABL1, non-phosphorylated (ABL1, Homo sapiens, UniProt P00519) | binding, competition with immobilised ligand |  | 1 µM |  | remaining binding | 36%
CC(=O)N[C@@H](Cc1c[nH]c2ccccc12)C(=O)N[C@@H](CCC(=O)O)C(=O)N[C@@H](Cc1c[nH]cn1)C(=O)N[C@@H](CC(=O)O)C(=O)COC(=O)c1c(C)cccc1C | CASP10 | inhibitor |  | recombinant enzyme |  | kobs/[I] | 107000 M⁻¹ s⁻¹
Cc1ncsc1-c1ccc(C(C)NC(=O)C2CC(O)CN2C(=O)C(NC(=O)CCCCCCCCCCN2CCCC(Nc3ncc(Cl)c(Nc4ccccc4S(=O)(=O)C(C)C)n3)C2)C(C)(C)C)cc1 (centres unmarked) | 22Rv1 | RNA-seq, item: ZNF772 mRNA |  | concentration not given | relative to: DMSO | log2 fold change | -1.31
CC[C@H](C)[C@H](NC(=O)[C@@H](NC(=O)[C@@H](NC(=O)[C@@H](NC(=O)[C@H](CCCCN)NC(=O)[C@H](CCC(=O)O)NC(=O)[C@H](C)N)C(C)C)C(C)C)C(C)C)C(=O)N[C@H](C(=O)N[C@@H](CCCCN)C(N)=O)[C@@H](C)O | MAPT (Homo sapiens, UniProt P10636) | ThT fluorescence |  | 0.1-fold over protein, 30 h, added: tau 10 µM, heparin | relative to: untreated | fibrillization plateau fluorescence | 77 ± 12%
O=C(N1CCCC1)n1cc(-c2ccc(-c3ccccc3)cc2)nn1 | Palmitoyl-protein thioesterase ABHD10, mitochondrial (Mus musculus, UniProt Q6PE15) | probe labelling, inhibitor, competitive ABPP-SILAC, item: Abhd10 | mouse T cells | concentration not given, 4 h, protein level | relative to: treated over DMSO cells, lower = stronger inhibition | SILAC activity ratio | 1.29
COC1CN([C@H]2CC[C@H]([C@@]3(C)Oc4c(Cl)cc(C(=O)NCc5c(SC)cc(C)[nH]c5=O)c(C)c4O3)CC2)C1 |  | RNA-seq, item: MAP1LC3A | human, whole blood | dose not given, 24 h | relative to: pretreatment baseline | log2 fold change | 1.07

Compound | target or system | test | test system | setting | how to read | endpoint | value
C=CC(=O)N1CC2(CCN(c3nc(OC4CCN(CCCOC)CC4)nc4c(OCC(F)(F)F)c(-c5c(C)ccc6[nH]ncc56)c(C5CC5)cc34)CC2)C1 | GTPase KRas, GDP-bound (KRAS, Homo sapiens, UniProt P01116, C118S/G12C) | covalent inhibitor |  |  |  | kinact/KI | 673000 M⁻¹ s⁻¹
CCOC(=O)C1CC(C)C2C=CC3CCN(C(=O)C4CCC5C=CC6(CCCN6C(=O)C(Cc6ccccc6Cl)NC(C)=O)C(=O)N54)C3C(=O)N12 (centres unmarked) | Ena/VASP-like protein, EVH1 domain (EVL, Homo sapiens, UniProt Q9UI08) | fluorescence titration |  |  |  | ligand efficiency | -730 J/(mol·heavy atom)
CNCCOc1cc(-c2coc3cc(O)ccc3c2=O)ccc1Cl | HSD3B1 | [3H]-DHEA conversion | LNCaP | 0.1 µM, normalized to protein, unit not given | relative to: vehicle | DHEA metabolism | 0.79
CC(C)C1=CC23CCC4C(C)(C(=O)O)CCCC4(C)C2CC1C(C(=O)O)C3C(=O)O (centres unmarked) | RPA1 (Homo sapiens, UniProt P27694) | binding, tryptophan fluorescence quenching |  | 3 µM, full-length protein, emission 348 nm |  | tryptophan fluorescence change | 28%
N#CN1CC[C@H](C(=O)Nc2nc3c(s2)CN(C(=O)Cn2cc(CNC(=O)CCCC[C@@H]4SC[C@@H]5NC(=O)N[C@@H]54)nn2)CC3)C1 | PCMT1 (Homo sapiens, UniProt P22061) | probe binding, affinity probe, neutravidin pull-down LC-MS/MS | HEK293T, cell lysate | 5 µM, 1 h, mean of three replicates, unit not given | higher = more pulled down | iBAQ abundance | 2.49e+08
CC(=O)N[C@@H](CCC(C)C)C(=O)N[C@H](C(=O)N[C@@H](CO)C(=O)N[C@@H](CC(=O)O)C(=O)COC(=O)c1c(C)cccc1C)C(C)(C)C | CASP10 | enzyme activity, inhibitor |  |  |  | kinact/KI | 178000 M⁻¹ s⁻¹
CCCCCCCC/C=C\CCCCCCCC(=O)NCCO | Trpv1 (Mus musculus, UniProt Q704Y3, T557S) | ion current, agonist, whole-cell patch clamp |  | T557S |  | Hill coefficient | 2.61 ± 0.5
CC(=O)N[C@@H](CCC(N)=O)C(=O)N[C@@H](CC(C)C)C(=O)N[C@@H](CCCC(=O)O)C(=O)N1CCC[C@H]1C(=O)N[C@@H](CC(=O)O)C(=O)COC(=O)c1c(C)cccc1C | CASP8 | enzyme activity, inhibitor |  |  |  | kinact/KI | 1.13e+06 M⁻¹ s⁻¹
O=C1c2sc(-c3ccc(N4CCC(F)C4)nc3F)nc2CCN1c1cccnc1 (centres unmarked) | ADRB1 (Homo sapiens, UniProt P08588) | ligand displacement, radioligand |  | 1 µM |  | inhibition | 2%
CC(=O)N[C@H](C(=O)N[C@@H](CCC(=O)O)C(=O)N[C@@H](C)C(=O)N[C@@H](CC(=O)O)C(=O)COC(=O)c1c(C)cccc1C)C(C)C | CASP8 | enzyme activity, inhibitor |  |  |  | kinact/KI | 2.22e+06 M⁻¹ s⁻¹
Cc1cc(C)c2c(Cn3ccnc3)cc(=O)oc2c1 | ADRA1A (Homo sapiens, UniProt P35348) | calcium mobilization, agonist | COS-7 | 500 µM | relative to: 3 µM ionomycin | agonist activity | 1.79 ± 1.12%
CC(C)[C@H](NC(=O)[C@@H](NC(=O)[C@H](Cc1ccccc1)NC(=O)[C@@H](N)CO)[C@@H](C)O)C(=O)N[C@@H](CCCNC(=N)N)C(=O)N[C@@H](C)C(N)=O | Microtubule-associated protein tau, PHF6* peptide (MAPT, Homo sapiens, UniProt P10636) | fibril formation, ThT fluorescence |  | 1-fold of peptide, pH 7.4, added: Ac-PHF6* 25 µM, heparin | relative to: untreated | ThT fluorescence | 125 ± 4%
CC(=O)N[C@H](CCc1ccccc1)C(=O)N[C@@H](CCCC(=O)O)C(=O)N1C[C@H](O)C[C@H]1C(=O)N[C@@H](CC(=O)O)C(=O)COC(=O)c1c(C)cccc1C | CASP10 | enzyme activity, inhibitor |  |  |  | kinact/KI | 12400 M⁻¹ s⁻¹
O=C(NO)c1ccc(Cn2c3c(c4cc(F)ccc42)SC(c2ccccc2)C3)s1 (racemic) | Histone deacetylase 8 (Schistosoma mansoni, UniProt A5H660) | X-ray crystallography |  | chain A, residue K20, within 4 Å |  | number of contacts | 13
CC[C@H](C)[C@H](NC(=O)[C@H](CCCC(=O)O)NC(=O)[C@H](CC(=O)O)NC(C)=O)C(=O)N[C@@H](CC(=O)O)C(=O)COC(=O)c1c(C)cccc1C | CASP8 | enzyme activity, inhibitor |  |  |  | kinact/KI | 730000 M⁻¹ s⁻¹
CCN(CC)C(=O)c1ccc(O)c(OC)c1 | Heat shock protein HSP 90-alpha, N-terminal domain (HSP90AA1, Homo sapiens, UniProt P07900) | binding, ligand-observed NMR titration |  | 9.59 µM, ligand to protein ratio 707 |  | bound ligand fraction | 0.13
CC(=O)N1[C@H](C(=O)N[C@H](C(=O)N[C@@H](Cc2c[nH]cn2)C(=O)N[C@@H](CC(=O)O)C(=O)COC(=O)c2c(C)cccc2C)C(C)(C)C)C[C@@H]2CCCC[C@@H]21 | CASP8 | enzyme activity, inhibitor |  |  |  | kinact/KI | 187000 M⁻¹ s⁻¹
C[n+]1cn(C2OC(COP(=O)(O)OP(=O)([O-])C(F)(F)P(=O)(O)OP(=O)(O)OCC3OC(n4cnc5c(=O)[nH]c(N)nc54)C(O)C3O)C(O)C2O)c2nc(N)nc(O)c21 (centres unmarked) | DCPS (Homo sapiens, UniProt Q96C86) | substrate, HPLC |  | concentration not given, 120 min |  | hydrolysis | 87.5 ± 0.4%
C[Si](C)(C)C[C@H](CN)CC(=O)O | L-type calcium channel, rat | binding, radioligand binding |  | 250 µM |  | inhibition | 9%

Repeated from above:
Compound | target or system | test | test system | setting | how to read | endpoint | value
CCOC(=O)C1CC(C)C2C=CC3CCN(C(=O)C4CCC5C=CC6(CCCN6C(=O)C(Cc6ccccc6Cl)NC(C)=O)C(=O)N54)C3C(=O)N12 (centres unmarked) | Ena/VASP-like protein, EVH1 domain (EVL, Homo sapiens, UniProt Q9UI08) | fluorescence titration |  |  |  | ligand efficiency | -730 J/(mol·heavy atom)
CC[C@H](C)[C@H](NC(=O)[C@@H](NC(=O)[C@@H](NC(=O)[C@@H](NC(=O)[C@H](CCCCN)NC(=O)[C@H](CCC(=O)O)NC(=O)[C@H](C)N)C(C)C)C(C)C)C(C)C)C(=O)N[C@H](C(=O)N[C@@H](CCCCN)C(N)=O)[C@@H](C)O | MAPT (Homo sapiens, UniProt P10636) | ThT fluorescence |  | 0.1-fold over protein, 30 h, added: tau 10 µM, heparin | relative to: untreated | fibrillization plateau fluorescence | 77 ± 12%
CN1CCN(Cc2cc(-c3coc4cc(O)ccc4c3=O)ccc2Cl)CC1 | HSD3B1 | [3H]-DHEA conversion | LNCaP | 0.1 µM, normalized to protein, unit not given | relative to: vehicle | DHEA metabolism | 2.23
CCN(CC)C(CO)c1cccc2c(C)c(C)oc12 (centres unmarked) | LPAR1 (Homo sapiens, UniProt Q92633, W271A) | G-protein dissociation, agonist, NanoBiT | HEK-293T | 100 nM, W271A mutant | relative to: baseline luminescence | fold change | 0.953 and 1.04 and 0.918 and 0.968 and 0.802 and 1.02
